Measurements from different studies.
Every numbered part comes from another study and shows a few of its results, in no order. Substitutions count along the parent as printed.

Block 1 — method: competition protein-binding microarray; form: double-stranded DNA, one strand shown; medium: in vitro; tested at: 2 µM; added: Pho4 competitor, 0.05 µM; direction: higher = stronger binding
Target: Centromere-binding protein 1, full length, His-tagged (CBF1, Saccharomyces cerevisiae, UniProt P17106, residues 1-351)
UniProt P17106, sequence (whole entry, looked up): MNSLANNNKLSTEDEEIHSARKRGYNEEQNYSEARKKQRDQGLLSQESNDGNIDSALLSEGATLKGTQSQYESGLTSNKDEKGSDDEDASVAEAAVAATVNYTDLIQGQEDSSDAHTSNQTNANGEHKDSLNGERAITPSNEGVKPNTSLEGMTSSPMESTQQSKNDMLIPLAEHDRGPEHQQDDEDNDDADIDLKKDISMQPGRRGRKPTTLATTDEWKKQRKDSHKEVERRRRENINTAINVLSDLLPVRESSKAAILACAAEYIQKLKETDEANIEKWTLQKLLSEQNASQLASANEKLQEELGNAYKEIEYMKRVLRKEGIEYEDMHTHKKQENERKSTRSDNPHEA
Setting: whole 60-bp probe, lowest competitor level
For `CGGGGTTAAGTTTTTCACGTGAGGTGCTTGCAGCAGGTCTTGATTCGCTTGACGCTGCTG`, the fluorescence intensity was 784 a.u.
`CGGGGTTAAGTTTGGGAAGTGGGTGGCTTGCAGCAGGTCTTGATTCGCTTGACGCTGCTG` gave a fluorescence intensity of 68.1 a.u.
The fluorescence intensity of `CTTCTGTAAATTTGTCACCACACTTGACGCGCCCCGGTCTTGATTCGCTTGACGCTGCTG` is reported as 81.2 a.u.
`TTTTCAAGGTCGCGGCCCGTGCAAAGCGCGGCTGGAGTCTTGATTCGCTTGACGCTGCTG` has a fluorescence intensity of 61.3 a.u.
The fluorescence intensity of `AGTACTTGACTGCACCTCGTGTCGGAAGATTTTCCAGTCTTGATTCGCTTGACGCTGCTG` is reported as 93.6 a.u.
With `CCCAAGCGCTAGCATCACAAACGGCGAACTTCCCATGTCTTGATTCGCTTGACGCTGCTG` the fluorescence intensity was 49.5 a.u.
With `TCGACACACCCGCCGCATGTGCGACAATTTCTTCGGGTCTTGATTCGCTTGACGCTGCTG` the fluorescence intensity was 90.3 a.u.
For `TCGGTTTTTCTTACCGTCGTGGCCGTAGAGGTGAGGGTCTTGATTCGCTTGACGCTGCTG`, the fluorescence intensity was 62.4 a.u.
`CTTTCCCGATCTTTTCACGTGAGCTTAGCACATTTGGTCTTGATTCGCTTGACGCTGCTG` has a fluorescence intensity of 1060 a.u.

Block 2 — method: RNA Bind-n-Seq; form: RNA; medium: in vitro; tested at: 365 nM; relative to: no-protein control; direction: higher = stronger binding
Target: RNA binding protein fox-1 homolog 2, RRM domain, GST-SBP tag (RBFOX2, Homo sapiens, UniProt O43251-10, residues 100-194)
Setting: natural RNA segment, single round, ends assumed
Construct (chain): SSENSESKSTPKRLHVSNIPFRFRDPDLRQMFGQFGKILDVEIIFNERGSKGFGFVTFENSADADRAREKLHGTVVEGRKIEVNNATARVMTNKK
`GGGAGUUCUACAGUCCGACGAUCAUGUAUAGUGUACCUCAAUUCACACGACAGCGACAGCCAUGCUCCUGCCGUACAUGGACAUCUGUUCAACGACUCAUAUUUCAACUGUACCCGAGAGGCUAGCUAUUUAAUGGAAUUCUCGGGUGCCAA` — result for “RBNS enrichment (R)”: 0.475.
`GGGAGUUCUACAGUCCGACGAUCCUAAGAAGACCACUAGUCCCAUGAAGUCUCACCUUGUUGACUUCCACCAGAACAAAACCUGUUAAUUCAGCUUGACUUCUCAUAUGUGUUCUGUGUUCAAGCUCCUGUGGUGGAAUUCUCGGGUGCCAA` — result for “RBNS enrichment (R)”: 0.38.
`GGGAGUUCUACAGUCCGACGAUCAUUGUGCUAACAAGUUGUGCUAAUAUUUAACUCAGCCAGAGUUUCACUCAUUUGCUAAGCAUUGGGAACAUUCUGUGUAUUUACCUUAAACAUAAAUAAAUUCCUGAGAGUGGAAUUCUCGGGUGCCAA` — result for “RBNS enrichment (R)”: 0.466.
`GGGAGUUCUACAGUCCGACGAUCCGUUAUCUUUUAGCACUCAUAGAACAAACCAAGAUAUGGAAGAAGACAUAUUCAAAAGGUGGGCUUGUCUAAGGUUCCCACAGAAAUGUAAGUAUGAGCCUACUGUUUUGUGGAAUUCUCGGGUGCCAA` — result for “RBNS enrichment (R)”: 0.475.
For `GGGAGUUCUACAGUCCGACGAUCCCAGCCUCUGGGGACCAAUUGCUUUUACUGUGGUCUGUGGCCUGUCCUGUCUCUGUCAGUGGAGAAGAAAGGCAGUGAGCUGGAUCAGCCAGAGUUCUGGGAGACAACGCUGGAAUUCUCGGGUGCCAA`, “RBNS enrichment (R)” read 0.427.
`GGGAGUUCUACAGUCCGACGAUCUUUUUUCUCCCCAUCCCACUUAAGGUGAUGGGGCAAGGGAAGAACUCAGCUCCCCUCCCCUGAAUUAUAUUUGUAUGCUGGGUGGCCUGGCUGAUGCUCAGAGGCCUCCUUGGAAUUCUCGGGUGCCAA` — result for “RBNS enrichment (R)”: 3.08.
Under “RBNS enrichment (R)”, `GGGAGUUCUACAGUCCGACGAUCUGCCCUGUGGUGUUUGGCACGAGGCUCCCAGCCACUUAAACCUGUUCACUUUCCAAAGAAUUCAUCUUCCAGCCAGUCCCGUUGUGUCCUUGCUUGUCUGCAUUUAUUAGUGGAAUUCUCGGGUGCCAA` is recorded as 1.07.
`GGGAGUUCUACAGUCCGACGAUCCCAGCCAAAUAGUGUUCUCGGGGUGGUGGCUGGGCAGCGCCUAUGUUUCUCUGGAGAUUCCUGCAACCUCAAGAGACUUCCCAGGCGCUCAGGCCUGGAUCUUGCUCCUCUGGAAUUCUCGGGUGCCAA` — result for “RBNS enrichment (R)”: 0.325.
Under “RBNS enrichment (R)”, `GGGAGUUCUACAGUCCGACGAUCUUCCUUUUAGUAUGUUUCAAGUGCAGUAAUCGUACUUGUCUAUCCAGUUUCUAUGUAUGAUACGAGUUGCUUACACGAUGCAUGGCUAACUUGUUAAUUUAGUUUUCUCCUGGAAUUCUCGGGUGCCAA` is recorded as 9.65.
For `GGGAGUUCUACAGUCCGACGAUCCCAAGUCUUGUACCAAGGGCAGUGCACACUAGGUCUAAGUUGGCAUAAACCUUCAUAUUCUGUCUGUCUCUGUUUGGUUUUGUUUUUAAUAUAGUGUGCCAAUUUUGUGAUGGAAUUCUCGGGUGCCAA`, “RBNS enrichment (R)” read 1.35.
For `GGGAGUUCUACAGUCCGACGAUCGACUCCCUUGUGGCCUCAACCCGUUCGUCCUUCAGCCUGUCAUCCUUCAGGCACCGACGCCCAACCUGCCGUGACCUGUGCUGUAUGAACAACCUCACUGAGGAUUUCCUUGGAAUUCUCGGGUGCCAA`, “RBNS enrichment (R)” read 0.374.
`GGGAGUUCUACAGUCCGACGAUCCAUAAGUAUAUACUUGAAAGUACAUCUGUAGCCUAUGAUUUGAGUCUCUUGAAGUUCUAGGAAGAGGCAAACUACAAACUACUAGGAUUCUGAUUUCAGAUGUAGUCAUUUGGAAUUCUCGGGUGCCAA`: “RBNS enrichment (R)” 0.592.

Block 3 — target: CCNB2, cyclin fold, Cln2 fusion (human); method: yeast growth competition, sequencing; medium: yeast; setting: weak parent motif; relative to: not given; direction: higher = stronger binding
Parent: SCAPER docking peptide (human); SNARRSLNFGGST; partner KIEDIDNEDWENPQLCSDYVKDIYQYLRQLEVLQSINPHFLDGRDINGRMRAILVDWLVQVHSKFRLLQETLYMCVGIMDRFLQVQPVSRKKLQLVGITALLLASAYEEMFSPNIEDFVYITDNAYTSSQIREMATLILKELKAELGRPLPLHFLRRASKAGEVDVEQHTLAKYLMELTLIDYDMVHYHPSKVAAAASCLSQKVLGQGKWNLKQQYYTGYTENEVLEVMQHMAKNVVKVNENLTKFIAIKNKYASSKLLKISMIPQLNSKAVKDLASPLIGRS
For `SNAQRSLNFGGST [R4Q]`, “normalised enrichment score” read -0.55.
For `SNARRSINFGGST [L7I]`, “normalised enrichment score” read 0.108.
`SNARRSLNAGGST [F9A]` — result for “normalised enrichment score”: 0.176.
`SNARRSLNFGPST [G11P]`: “normalised enrichment score” -0.0889.
`SNATRSLNFGGST [R4T]`: “normalised enrichment score” 0.19.
For `SNARRSFNFGGST [L7F]`, “normalised enrichment score” read -0.0812.
For `RNARRSLNFGGST [S1R]`, “normalised enrichment score” read 0.204.
Under “normalised enrichment score”, `SNARRSLNFGGCT [S12C]` is recorded as -0.0795.
For `SNARGSLNFGGST [R5G]`, “normalised enrichment score” read -0.439.

Further values, each from its own experiment
`PhoQ, residues 284 288 289 292 302 303 SLKLQV` gave a fold induction of 5.95 (PhoP, residues 12 14 15 18 19 LFHKL (Escherichia coli, UniProt P23836); Sort-seq, refers to: YFP reporter; E. coli; PhoQ-PhoP variant library, added: 10 µM Mg2+; relative to: high Mg2+ state, higher = stronger signaling).
